Results collected from several papers.
± gives the spread as reported.
alkA: alkA 1-282 (Escherichia coli, UniProt P04395)
Chain of UniProt Q96T21 (whole entry, looked up): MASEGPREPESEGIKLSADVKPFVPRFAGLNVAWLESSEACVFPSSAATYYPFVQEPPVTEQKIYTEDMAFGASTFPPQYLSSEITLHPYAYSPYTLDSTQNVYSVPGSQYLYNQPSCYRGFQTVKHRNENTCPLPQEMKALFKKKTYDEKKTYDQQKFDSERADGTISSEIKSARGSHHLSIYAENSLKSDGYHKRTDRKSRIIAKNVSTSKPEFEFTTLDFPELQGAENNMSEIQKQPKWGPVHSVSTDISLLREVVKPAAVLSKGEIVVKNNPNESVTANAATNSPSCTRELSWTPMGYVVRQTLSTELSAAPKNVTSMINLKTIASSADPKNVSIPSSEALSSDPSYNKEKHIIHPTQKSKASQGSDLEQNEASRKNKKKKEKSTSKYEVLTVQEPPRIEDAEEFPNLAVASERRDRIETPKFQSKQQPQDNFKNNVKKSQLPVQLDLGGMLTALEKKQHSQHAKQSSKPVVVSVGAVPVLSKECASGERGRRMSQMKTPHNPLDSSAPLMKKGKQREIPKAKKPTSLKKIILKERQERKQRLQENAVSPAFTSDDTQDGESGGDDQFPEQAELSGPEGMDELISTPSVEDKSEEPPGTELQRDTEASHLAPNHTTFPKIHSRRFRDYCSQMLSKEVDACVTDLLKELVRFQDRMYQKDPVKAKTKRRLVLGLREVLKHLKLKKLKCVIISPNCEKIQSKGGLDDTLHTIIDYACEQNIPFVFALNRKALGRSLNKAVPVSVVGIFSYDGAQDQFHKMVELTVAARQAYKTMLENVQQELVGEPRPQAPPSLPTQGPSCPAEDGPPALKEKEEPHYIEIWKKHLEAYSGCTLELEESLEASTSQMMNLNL
Chain of UniProt P04395 (whole entry, looked up): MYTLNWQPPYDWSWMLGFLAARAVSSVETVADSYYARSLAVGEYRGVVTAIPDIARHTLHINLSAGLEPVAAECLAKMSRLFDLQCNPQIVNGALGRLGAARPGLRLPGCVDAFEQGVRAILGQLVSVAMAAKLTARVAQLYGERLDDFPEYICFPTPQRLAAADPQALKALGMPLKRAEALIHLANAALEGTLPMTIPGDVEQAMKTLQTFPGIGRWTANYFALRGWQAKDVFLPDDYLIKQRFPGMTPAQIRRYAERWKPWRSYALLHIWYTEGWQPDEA
Chain of UniProt P27695 (whole entry, looked up): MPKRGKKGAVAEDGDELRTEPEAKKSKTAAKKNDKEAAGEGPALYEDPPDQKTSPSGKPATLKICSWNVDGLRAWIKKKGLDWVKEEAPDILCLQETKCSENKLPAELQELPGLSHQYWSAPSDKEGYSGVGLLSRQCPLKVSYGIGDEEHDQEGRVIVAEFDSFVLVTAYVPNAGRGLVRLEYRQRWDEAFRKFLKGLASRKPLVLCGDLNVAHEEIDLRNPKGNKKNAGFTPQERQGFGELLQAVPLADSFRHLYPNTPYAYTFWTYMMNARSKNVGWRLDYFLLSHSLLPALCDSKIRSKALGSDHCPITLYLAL
Chain of UniProt P19525 (whole entry, unmodified, looked up): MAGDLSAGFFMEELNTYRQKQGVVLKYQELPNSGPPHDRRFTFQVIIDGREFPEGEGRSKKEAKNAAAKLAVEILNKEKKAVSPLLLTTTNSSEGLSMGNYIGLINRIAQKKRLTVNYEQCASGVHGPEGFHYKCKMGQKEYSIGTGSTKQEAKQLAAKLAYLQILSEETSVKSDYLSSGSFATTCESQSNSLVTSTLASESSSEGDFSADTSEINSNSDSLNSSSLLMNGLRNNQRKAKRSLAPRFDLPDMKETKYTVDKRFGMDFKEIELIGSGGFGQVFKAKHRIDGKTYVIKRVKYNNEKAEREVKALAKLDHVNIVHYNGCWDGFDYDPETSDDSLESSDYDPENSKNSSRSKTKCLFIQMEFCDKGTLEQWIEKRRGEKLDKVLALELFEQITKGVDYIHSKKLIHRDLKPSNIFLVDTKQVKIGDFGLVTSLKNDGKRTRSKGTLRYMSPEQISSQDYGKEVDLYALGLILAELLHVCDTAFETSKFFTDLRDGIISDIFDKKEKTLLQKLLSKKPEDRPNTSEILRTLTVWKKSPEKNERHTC

| Oligonucleotide | target | assay | system | conditions | quantity | value |
| --- | --- | --- | --- | --- | --- | --- |
| CGGGGCGGGCCGGGGGCGGGGT (G-quadruplex DNA; parallel in K+) | APEX1 full length assumed (Homo sapiens, UniProt P27695) | fluorescence anisotropy | folded DNA | K+ 50 mM, without Mg2+, EDTA | Kd | 0.19 ± 0.05 µM |
| RNA 1 GGAGGAUGUUAAUUGGCGUGUCUUGUCUGCAACGGUAUUC / RNA 2 GAAUACCGUUGCAGACAAGACACGCCAAUUAACAUCCUCC (dsRNA) | EIF2AK2 1-185 Y142W/Q110A (Homo sapiens, UniProt P19525) | tryptophan fluorescence anisotropy | double-stranded RNA | 1 µM | binding | binds |
| CTGACCTCATCATCTCCCTACACACTGACACTTACAATGTGGTCAGTT (dsDNA) | protein holo R370Q/R371Q (Bacillus clausii, UniProt A0A268NVG2) | fluorescence titration | double-stranded DNA, one strand shown | Mg2+ 5 mM, apparent, Hill fit, with: PLP | Kd | 0.0475 ± 0.0018 µM |
| UGGAGCCUUCCACCCCGGCACUCAUGACGGUCUGCCUGAAAACCAGCCCGCUGGUGGGGCAGUCCCGAGGACCUGGCGUGCAUCCCCGCCGGAGGAAGGUCCA (structured RNA) | SECISBP2 344-854 (Homo sapiens, UniProt Q96T21) | EMSA | folded RNA | – | Kd | 0.35 µM |
| GACATGATTGCCCGATAGCATCCTACCTTCTCTCCATGCGTCAATTGTC (dsDNA; 49-mer duplex) | alkA | competition | double-stranded DNA, one strand shown | – | Ki | 0.012 ± 0.002 µM |
| GCAGCCCAUGAUGGCUGAAUCCGAAAUCCUCGAUGGGUCCAGCUUGAUGUCUUUGCAGC (structured RNA) | SECISBP2 (Homo sapiens, UniProt Q96T21) | EMSA | folded RNA | – | Kd | 0.34 ± 0.015 µM |
| CGATAGCATCCTACCTTCTCTCCAT (dsDNA; 25-mer duplex) | alkA | competition | double-stranded DNA, one strand shown | 37 °C | Ki | 0.033 ± 0.016 µM |
| CTGACCTCATCATTTTCTTAAAAACTGACACTTACAATGTGGTCAGTT (dsDNA) | protein holo K360Q/R364Q (Bacillus clausii, UniProt A0A268NVG2) | fluorescence titration | double-stranded DNA, one strand shown | Mg2+ 5 mM, apparent, Hill fit, with: PLP | Kd | 0.0338 ± 0.0026 µM |
| AGGGGAACGATATTAGTACATACTCTTTTATATGGGGG (dsDNA) | ribK full length assumed (UniProt H2C8H2) | fluorescence polarization | double-stranded DNA, one strand shown | with: CTP 100 µM | K1/2 | 105 nM |
